Published values gathered from unrelated publications.
Each line is one published result; not all experiments were run side by side. ± marks the error that the study gave.
BLK: Tyrosine-protein kinase Blk (BLK, Homo sapiens, UniProt P51451)
UniProt P51451, sequence (whole entry, looked up): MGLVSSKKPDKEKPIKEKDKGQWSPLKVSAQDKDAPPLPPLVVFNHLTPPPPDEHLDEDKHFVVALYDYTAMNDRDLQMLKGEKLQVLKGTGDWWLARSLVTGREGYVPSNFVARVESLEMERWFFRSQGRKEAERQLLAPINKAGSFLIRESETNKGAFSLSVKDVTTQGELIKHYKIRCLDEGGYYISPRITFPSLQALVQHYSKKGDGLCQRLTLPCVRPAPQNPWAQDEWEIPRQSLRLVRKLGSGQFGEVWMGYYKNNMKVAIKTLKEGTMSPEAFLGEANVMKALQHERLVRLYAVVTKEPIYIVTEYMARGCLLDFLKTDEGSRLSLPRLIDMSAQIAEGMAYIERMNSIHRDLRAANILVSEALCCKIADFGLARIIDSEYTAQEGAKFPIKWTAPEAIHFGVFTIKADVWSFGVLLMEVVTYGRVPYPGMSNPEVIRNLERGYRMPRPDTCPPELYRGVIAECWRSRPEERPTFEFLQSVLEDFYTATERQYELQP
TYMS: Thymidylate synthase (TYMS, Homo sapiens, UniProt P04818)
UniProt P04818, sequence (whole entry, looked up): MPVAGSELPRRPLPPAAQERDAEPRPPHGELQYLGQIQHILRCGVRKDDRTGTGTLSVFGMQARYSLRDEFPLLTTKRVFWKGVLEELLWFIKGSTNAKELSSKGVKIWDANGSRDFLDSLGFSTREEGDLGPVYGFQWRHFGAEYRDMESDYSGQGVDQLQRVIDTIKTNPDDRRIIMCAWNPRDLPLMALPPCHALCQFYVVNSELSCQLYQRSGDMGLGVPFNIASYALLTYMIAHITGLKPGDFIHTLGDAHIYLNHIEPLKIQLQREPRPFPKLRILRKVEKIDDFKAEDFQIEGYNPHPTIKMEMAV
TGFBR1: TGF-beta receptor type-1 (TGFBR1, Homo sapiens, UniProt P36897)
UniProt P36897, sequence (whole entry, looked up): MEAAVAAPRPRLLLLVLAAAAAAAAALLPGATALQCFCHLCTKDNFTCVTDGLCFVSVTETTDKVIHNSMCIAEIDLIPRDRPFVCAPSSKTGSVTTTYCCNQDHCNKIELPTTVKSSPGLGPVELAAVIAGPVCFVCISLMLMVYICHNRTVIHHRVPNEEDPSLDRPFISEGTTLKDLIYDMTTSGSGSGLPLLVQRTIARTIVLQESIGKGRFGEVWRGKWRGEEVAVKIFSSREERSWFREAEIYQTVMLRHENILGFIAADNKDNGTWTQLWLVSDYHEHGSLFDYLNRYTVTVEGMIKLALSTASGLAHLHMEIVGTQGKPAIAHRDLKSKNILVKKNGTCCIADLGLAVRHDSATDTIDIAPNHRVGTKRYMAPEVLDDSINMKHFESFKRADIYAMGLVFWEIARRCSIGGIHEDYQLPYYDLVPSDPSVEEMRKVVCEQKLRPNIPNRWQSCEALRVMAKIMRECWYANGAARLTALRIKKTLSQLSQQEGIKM
Protein lin-28 homolog A: Protein lin-28 homolog A (Mus musculus, UniProt Q8K3Y3)
UniProt Q8K3Y3, sequence (whole entry, looked up): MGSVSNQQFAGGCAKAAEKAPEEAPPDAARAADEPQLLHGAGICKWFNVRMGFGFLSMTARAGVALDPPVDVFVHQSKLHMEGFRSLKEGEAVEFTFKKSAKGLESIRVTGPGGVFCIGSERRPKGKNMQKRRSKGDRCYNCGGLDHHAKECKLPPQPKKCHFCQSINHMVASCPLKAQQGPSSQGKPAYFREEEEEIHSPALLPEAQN
DCN1-like protein 1 PONY domain: DCN1-like protein 1, PONY domain (Homo sapiens, UniProt Q96GG9)
PARP1: Poly [ADP-ribose] polymerase 1 (PARP1, Homo sapiens, UniProt P09874)
UniProt P09874, sequence (whole entry, looked up): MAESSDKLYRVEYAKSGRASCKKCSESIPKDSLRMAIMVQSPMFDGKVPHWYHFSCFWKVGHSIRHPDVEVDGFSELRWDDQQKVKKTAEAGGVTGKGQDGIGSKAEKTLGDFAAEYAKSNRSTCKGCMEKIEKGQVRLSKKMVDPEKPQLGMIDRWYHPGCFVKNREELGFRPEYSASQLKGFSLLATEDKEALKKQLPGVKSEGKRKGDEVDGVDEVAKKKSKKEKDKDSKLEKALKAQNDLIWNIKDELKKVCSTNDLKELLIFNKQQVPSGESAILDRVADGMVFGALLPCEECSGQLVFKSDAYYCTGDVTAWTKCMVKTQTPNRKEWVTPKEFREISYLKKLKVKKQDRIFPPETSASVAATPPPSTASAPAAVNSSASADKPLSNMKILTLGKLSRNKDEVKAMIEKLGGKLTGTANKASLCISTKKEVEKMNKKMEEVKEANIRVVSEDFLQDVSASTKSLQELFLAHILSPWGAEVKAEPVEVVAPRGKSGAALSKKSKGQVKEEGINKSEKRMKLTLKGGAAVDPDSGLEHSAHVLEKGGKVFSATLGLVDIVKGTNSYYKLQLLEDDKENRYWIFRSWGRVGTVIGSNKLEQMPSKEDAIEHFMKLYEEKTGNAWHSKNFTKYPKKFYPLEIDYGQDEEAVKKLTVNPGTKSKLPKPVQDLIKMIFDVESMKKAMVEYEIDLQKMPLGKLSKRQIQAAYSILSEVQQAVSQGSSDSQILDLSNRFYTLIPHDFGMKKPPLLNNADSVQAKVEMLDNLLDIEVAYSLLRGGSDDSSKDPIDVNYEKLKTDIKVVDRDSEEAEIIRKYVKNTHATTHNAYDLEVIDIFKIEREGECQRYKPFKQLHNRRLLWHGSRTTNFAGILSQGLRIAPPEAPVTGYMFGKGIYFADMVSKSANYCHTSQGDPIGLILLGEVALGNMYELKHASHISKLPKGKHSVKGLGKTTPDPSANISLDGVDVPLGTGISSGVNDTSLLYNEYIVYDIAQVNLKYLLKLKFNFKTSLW
CLK2: Dual specificity protein kinase CLK2 (CLK2, Homo sapiens, UniProt P49760)
UniProt P49760, sequence (whole entry, looked up): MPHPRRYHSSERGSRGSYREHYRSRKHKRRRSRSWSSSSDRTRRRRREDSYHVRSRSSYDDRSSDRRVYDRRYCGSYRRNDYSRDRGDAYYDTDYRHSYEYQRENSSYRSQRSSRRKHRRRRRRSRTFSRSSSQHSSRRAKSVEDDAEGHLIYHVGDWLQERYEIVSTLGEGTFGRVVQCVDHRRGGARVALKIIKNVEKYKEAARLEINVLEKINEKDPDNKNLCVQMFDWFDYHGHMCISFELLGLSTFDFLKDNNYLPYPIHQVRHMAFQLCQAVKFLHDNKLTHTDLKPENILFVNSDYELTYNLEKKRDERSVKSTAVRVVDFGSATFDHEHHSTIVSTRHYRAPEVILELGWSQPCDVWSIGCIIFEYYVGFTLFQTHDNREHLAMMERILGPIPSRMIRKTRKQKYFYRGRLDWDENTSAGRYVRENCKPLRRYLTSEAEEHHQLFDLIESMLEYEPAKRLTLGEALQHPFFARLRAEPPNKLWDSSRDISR
F11: Coagulation factor XI (F11, Homo sapiens, UniProt P03951)
UniProt P03951, sequence (whole entry, looked up): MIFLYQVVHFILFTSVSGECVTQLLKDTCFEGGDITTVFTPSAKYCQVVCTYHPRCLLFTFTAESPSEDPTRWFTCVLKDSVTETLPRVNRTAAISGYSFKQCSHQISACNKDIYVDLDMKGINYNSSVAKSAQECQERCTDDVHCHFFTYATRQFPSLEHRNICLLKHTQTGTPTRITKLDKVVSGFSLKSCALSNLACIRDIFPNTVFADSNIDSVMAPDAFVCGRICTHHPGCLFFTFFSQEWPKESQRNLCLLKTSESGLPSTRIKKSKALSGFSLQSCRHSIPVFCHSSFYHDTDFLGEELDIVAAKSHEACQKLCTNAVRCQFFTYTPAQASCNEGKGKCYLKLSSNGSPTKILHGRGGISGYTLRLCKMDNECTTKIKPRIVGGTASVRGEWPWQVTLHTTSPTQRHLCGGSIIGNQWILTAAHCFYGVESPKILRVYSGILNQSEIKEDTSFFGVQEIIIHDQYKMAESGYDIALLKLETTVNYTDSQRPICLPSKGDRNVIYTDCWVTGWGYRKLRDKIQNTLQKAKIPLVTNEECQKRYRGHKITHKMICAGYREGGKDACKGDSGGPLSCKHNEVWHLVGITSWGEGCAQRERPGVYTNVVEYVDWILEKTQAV
UniProt P06396, sequence (whole entry, unmodified, looked up): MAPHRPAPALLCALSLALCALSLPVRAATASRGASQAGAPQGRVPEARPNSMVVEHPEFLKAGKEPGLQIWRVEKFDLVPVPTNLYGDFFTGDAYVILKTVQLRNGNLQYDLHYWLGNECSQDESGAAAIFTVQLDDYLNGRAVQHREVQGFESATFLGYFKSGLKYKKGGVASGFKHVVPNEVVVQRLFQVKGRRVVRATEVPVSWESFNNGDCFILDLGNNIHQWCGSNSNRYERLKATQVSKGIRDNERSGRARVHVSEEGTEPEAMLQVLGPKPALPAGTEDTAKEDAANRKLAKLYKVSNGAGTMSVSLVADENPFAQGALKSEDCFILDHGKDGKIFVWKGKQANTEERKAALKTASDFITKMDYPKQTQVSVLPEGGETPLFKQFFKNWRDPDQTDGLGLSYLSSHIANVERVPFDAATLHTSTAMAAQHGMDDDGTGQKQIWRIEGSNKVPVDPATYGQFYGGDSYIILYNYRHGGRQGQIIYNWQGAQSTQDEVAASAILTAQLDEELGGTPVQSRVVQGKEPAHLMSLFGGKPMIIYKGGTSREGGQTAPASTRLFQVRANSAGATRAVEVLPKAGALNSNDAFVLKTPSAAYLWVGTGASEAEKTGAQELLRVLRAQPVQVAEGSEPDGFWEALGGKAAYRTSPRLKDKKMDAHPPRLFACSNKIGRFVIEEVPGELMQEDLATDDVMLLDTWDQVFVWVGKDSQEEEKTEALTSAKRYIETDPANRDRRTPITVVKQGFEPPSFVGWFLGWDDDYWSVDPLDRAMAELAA
UniProt Q9BSA9, sequence (whole entry, looked up): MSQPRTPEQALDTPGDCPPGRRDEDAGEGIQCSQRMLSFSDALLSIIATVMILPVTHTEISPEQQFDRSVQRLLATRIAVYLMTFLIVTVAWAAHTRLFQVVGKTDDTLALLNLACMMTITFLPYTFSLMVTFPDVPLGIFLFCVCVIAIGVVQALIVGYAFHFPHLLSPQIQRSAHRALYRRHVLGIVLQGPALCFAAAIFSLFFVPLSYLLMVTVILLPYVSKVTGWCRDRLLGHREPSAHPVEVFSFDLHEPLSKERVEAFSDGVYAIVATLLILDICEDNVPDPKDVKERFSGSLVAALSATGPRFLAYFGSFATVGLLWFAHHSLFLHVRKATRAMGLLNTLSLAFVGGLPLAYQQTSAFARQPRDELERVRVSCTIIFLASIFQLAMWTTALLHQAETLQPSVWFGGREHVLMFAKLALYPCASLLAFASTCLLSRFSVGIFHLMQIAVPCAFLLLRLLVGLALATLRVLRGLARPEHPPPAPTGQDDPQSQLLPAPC

Compound = Cc1cnc(-c2ccc(-c3ccc(NC(=O)Nc4c(F)cc(F)cc4F)cc3F)c3c2C(=O)NC3)[nH]1; tested on = BLK; test = kinase activity, inhibitor, cell-free; setting = 90 min, 28 °C, with: ATP; endpoint = IC50; value = 0.00074 µM
Compound = COc1ccc(CNC(=O)c2ccc(CNCc3cnc4nc(N)nc(N)c4n3)cc2)cc1; tested on = TYMS; test = inhibitor; endpoint = IC50; value = > 100 µM
Compound = Fc1ccc(-c2nc(-c3ccc4ccccc4c3F)[nH]c2-c2ccncc2)cc1; tested on = TGFBR1; test = binding, LanthaScreen kinase binding; endpoint = IC50; value = 0.152 ± 0.0074 µM
Compound = OC(c1cc(C(F)(F)F)nc2c(C(F)(F)F)cccc12)C1CCCCN1 (racemic); tested on = mtr-1 (Escherichia coli, UniProt A0A3T0V9Y5); endpoint = IC50; value = 210 µM
Compound = O=c1[nH]c(-c2ccccn2)nc2c1CSCC2; tested on = Protein lin-28 homolog A; endpoint = IC50; value = 15.5 µM
Compound = COc1ccc(Oc2ccc(CN(Cc3ccccc3)Cc3cnc4nc(N)nc(N)c4n3)cc2)cc1; tested on = TYMS; test = inhibitor; endpoint = IC50; value = > 100 µM
Compound = Fc1ccc(-c2nc(-c3c(F)cccc3F)[nH]c2-c2ccncc2)cc1; tested on = TGFBR1; test = binding, LanthaScreen kinase binding; endpoint = IC50; value = 0.0469 ± 0.0127 µM
Compound = CC(=O)N[C@@H](CC(C)C)C(=O)N[C@@H](CC(C)C)C(=O)N[C@H](C=O)CCCNC(=N)N; tested on = proteinase A; test = enzyme activity, inhibitor; endpoint = IC50; value = 119 µM
Compound = NC(=O)C1CCN(C(=O)Cc2ccc(N(CCCO)Cc3cnc4nc(N)nc(N)c4n3)cc2)CC1; tested on = TYMS; test = inhibitor; endpoint = IC50; value = > 100 µM
Compound = Cc1cccc(C)c1-c1nc(-c2ccc(F)cc2)c(-c2ccncc2)[nH]1; tested on = TGFBR1; test = binding, LanthaScreen kinase binding; endpoint = IC50; value = 0.0735 ± 0.0043 µM
Compound = NS(=O)(=O)NCCNc1nonc1C(=NO)Nc1ccc(F)c(Br)c1; tested on = THP-1; test = pyroptotic LDH release; setting = 2 µM, 40 min, with: LPS then nigericin; endpoint = inhibition; value = -4.59%
Compound = Cc1cccc(-c2nc(-c3ccc(/C(N)=N/O)cc3)[nH]c2-c2ccncc2)c1; tested on = TGFBR1; test = binding, LanthaScreen kinase binding; endpoint = IC50; value = 0.377 ± 0.0072 µM
Compound = Cn1c(SCc2ccccc2Cl)nc(=O)c2c1NC(=O)CC2c1cccc(O)c1 (centres unmarked); tested on = Protein lin-28 homolog A; endpoint = IC50; value = 12.3 µM
Compound = Nc1nc(N)c2nc(CNc3ccc(C(=O)NCCc4ccccc4)cc3)cnc2n1; tested on = TYMS; test = inhibitor; endpoint = IC50; value = > 100 µM
Compound = CCCC(C)N1CCC(N(Cc2ccccc2NC(=O)CC)C(=O)Nc2cccc(C(F)(F)F)c2)CC1 (centres unmarked); tested on = DCN1-like protein 1 PONY domain; test = inhibitor, TR-FRET; setting = preincubation five hours; endpoint = IC50; value = 0.931 ± 0.049 µM
Compound = NC(=O)c1cccc2c1O/C(=C\c1ccc(C(=O)NCC3CNC3)s1)C2=O; tested on = PARP1; test = inhibitor; endpoint = IC50; value = 0.074 µM
Compound = Cc1cccc(-c2nc(-c3ccc(C(N)=O)cc3)[nH]c2-c2ccncc2)c1; tested on = TGFBR1; test = binding, LanthaScreen kinase binding; endpoint = IC50; value = 0.54 ± 0.104 µM
Compound = C=CC(=O)NCc1ccccc1CN(C(=O)Nc1cccc(C(F)(F)F)c1)C1CCN(C(C)CCC)CC1 (centres unmarked); tested on = DCN1-like protein 1 PONY domain; test = binding, inhibitor, TR-FRET; setting = 24 h, racemic mixture; endpoint = IC50; value = 0.135 ± 0.129 µM
Compound = NC(=O)c1cccc2c1O/C(=C\c1ccc(C(=O)NC3CCNCC3)s1)C2=O; tested on = PARP1; test = inhibitor; endpoint = IC50; value = 0.26 µM
Compound = COc1cc(C(=O)NCC2(N(C)C)CCCC2)cc(OC)c1OCc1ccccc1; tested on = glycine transporter 2 (Xenopus tropicalis, UniProt A0A7D9NK84); test = glycine uptake, inhibitor; system = HEK293F; setting = with: 10 nM [3H]glycine; endpoint = IC50; value = 0.436 µM
Compound = c1coc(CNc2ncnc3[nH]cnc23)c1; tested on = Gelsolin, peptide (GSN, Homo sapiens, UniProt P06396, D214Y); test = amyloid aggregation, inhibitor, ThT fluorescence; setting = 12 h, 37 °C; endpoint = IC50; value = 38 ± 1.5 µM
Compound = N=C(N)c1ccc(OCCCCCOc2ccc(C(=N)N)cc2)cc1; tested on = Vitamin K-dependent protein C (PROC, Homo sapiens, UniProt P04070); endpoint = IC50; value = 1.1 ± 0.01 µM
Compound = CN1CCN(c2ccc(Nc3ncc4cc(C#N)c(=O)n(C5CCCC5)c4n3)cc2)CC1; tested on = CLK2; endpoint = IC50; value = 0.386 µM
Compound = CCCC(C)N1CCC(N(Cc2ccccc2CNC(=O)CCl)C(=O)Nc2cccc(C(F)(F)F)c2)CC1 (centres unmarked); tested on = DCN1-like protein 1 PONY domain; test = binding, inhibitor, TR-FRET; setting = 24 h, racemic mixture; endpoint = IC50; value = 0.222 ± 0.087 µM
Compound = NC(=O)c1cccc2c1O/C(=C\c1ccc(C(=O)O)s1)C2=O; tested on = PARP1; test = inhibitor; endpoint = IC50; value = 0.02 µM
Compound = Fc1ccc(-c2nc(-c3c(Cl)cccc3Cl)[nH]c2-c2ccncc2)cc1; tested on = TGFBR1; test = binding, LanthaScreen kinase binding; endpoint = IC50; value = 0.0046 ± 0.001 µM
Compound = COC(=O)CC1=NN(c2nc3ccccc3[nH]2)C(=O)C1; tested on = Protein lin-28 homolog A; endpoint = IC50; value = 75.8 µM
Compound = CC[C@@H]1[C@H](F)C(=O)N[C@@H]1COc1nccc2cc(C(N)=O)c(OC)cc12; tested on = CLK2; test = ATP-site probe binding, ActivX profiling; system = THP-1 cell lysate; setting = Lys2 site; endpoint = IC50; value = > 5 µM
Compound = COCc1nn(Cc2ccc(Cn3ccccc3=O)cc2)cc1C(=O)NCc1c(F)ccc(OC)c1F; tested on = F11; endpoint = IC50; value = > 40 µM
Compound = COc1c([C@H]2[C@H](C(=O)Nc3ccnc(C(N)=O)c3)O[C@@](C)(C(F)(F)F)[C@H]2C)ccc(F)c1F; tested on = Sodium-dependent noradrenaline transporter (SLC6A2, Homo sapiens, UniProt P23975); test = functional activity, antagonist; endpoint = IC50; value = ≥ 30 µM
Compound = COc1cc(O)ccc1C1CC(=O)Nc2c1c(=O)nc(SCc1ccccc1Cl)n2C (centres unmarked); tested on = Protein lin-28 homolog A; endpoint = IC50; value = 12.6 µM
Compound = Cn1cc2c(C(=O)O)ccc(NS(=O)(=O)c3ccc(OCC4CCC4)c(Cl)c3)c2n1; tested on = High affinity cAMP-specific and IBMX-insensitive 3',5'-cyclic phosphodiesterase 8B (PDE8B, Homo sapiens, UniProt O95263); test = antagonist; setting = off-target panel; endpoint = IC50; value = 180 µM
Compound = CC(=O)c1n[nH]c2ccc(-c3cnc4ccc(N(C)C5CCOCC5)nn34)cc12; tested on = TYRO protein tyrosine kinase-binding protein, with TREM1 (TYROBP, Homo sapiens, UniProt O43914); test = split luciferase reporter; system = human cells; setting = 6 h, treatment 48 h after induction, with: doxycycline induction; endpoint = IC50; value = 0.6 ± 0.1 µM
Compound = CC1=C(CC(=O)O)c2cc(F)ccc2/C1=C\c1ccc([S+](C)[O-])cc1 (centres unmarked); tested on = Protein disulfide-isomerase (P4HB, Homo sapiens, UniProt P07237); test = insulin reduction, inhibitor; endpoint = IC50; value = > 50 µM
Compound = Cc1cnc(-c2ccc(-c3ccc(NC(=O)Nc4c(F)cc(F)cc4F)cc3F)c3c2C(=O)NC3)[nH]1; tested on = BLK; test = enzyme activity, inhibitor, mobility shift; setting = with: ATP 1 mM; endpoint = IC50; value = 0.0051 µM
Compound = CCOC(=O)C1CCCN1C(=O)c1ccc(NCc2cnc3nc(N)nc(N)c3n2)cc1 (centres unmarked); tested on = TYMS; test = inhibitor; endpoint = IC50; value = > 100 µM
Compound = N=C(N)c1ccc(CNC(=O)c2cnn(Cc3ccccc3)c2)cc1; tested on = F11; endpoint = IC50; value = 22 µM
Compound = Nc1ncnc2c1ncn2[C@@H]1O[C@H](COP(=O)(O)OP(=O)(O)OP(=O)(O)O)[C@@H](O)[C@H]1O; tested on = P2Y receptor, rat; test = radioligand binding; endpoint = IC50; value = 0.038 µM
Compound = Fc1ccc(-c2nc(-c3ccccc3Br)[nH]c2-c2ccncc2)cc1; tested on = TGFBR1; test = binding, LanthaScreen kinase binding; endpoint = IC50; value = 0.0819 ± 0.0097 µM
Compound = Clc1ccc(Nc2ccncc2)cc1Cl; tested on = DNA repair nuclease/redox regulator APEX1 (APEX1, Homo sapiens, UniProt P27695); test = DNA glycosylase activity, inhibitor, fluorescent DNA cleavage; endpoint = IC50; value = > 99 µM
Compound = CCOC(=O)n1ccn(C)c1=S; tested on = THP-1; test = pyroptotic LDH release; setting = 2 µM, 40 min, with: LPS then nigericin; endpoint = inhibition; value = -5.6%
Compound = CCN(Cc1cnc2nc(N)nc(N)c2n1)c1ccc(C(=O)N2CCC(C(=O)OC)CC2)cc1; tested on = TYMS; test = inhibitor; endpoint = IC50; value = > 100 µM
Compound = Cn1c(SCc2ccccc2Cl)nc(=O)c2c1NC(=O)CC2c1ccc2c(c1)OCCO2 (centres unmarked); tested on = Protein lin-28 homolog A; endpoint = IC50; value = 10.5 µM
Compound = C/C(=C\CNc1ncnc2[nH]cnc12)CO; tested on = Gelsolin, peptide (GSN, Homo sapiens, UniProt P06396); endpoint = IC50; value = 14 ± 2 µM
Compound = COc1ccc(F)c(CNC(=O)c2cnn(Cc3ccc(Cn4ccccc4=O)cc3)c2)c1F; tested on = F11; endpoint = IC50; value = > 40 µM
Compound = Nc1ccnc(-c2ccccc2)c1; tested on = TMEM175 (Homo sapiens, UniProt Q9BSA9); test = potassium current, inhibitor, whole-cell patch clamp; system = HEK293T; setting = pH neutral, +80 mV pulse; endpoint = IC50; value = ~32 µM
Compound = COc1cc2c(c(OC)c1OC)-c1c(cc3c(c1OC)OCO3)CC(C)C(C)C2 (centres unmarked); tested on = CYP3A, rat; test = poziotinib metabolism to M2, inhibitor; system = rat liver microsomes, 0.3 mg/mL; setting = 30 min, with: poziotinib 5 µM; endpoint = IC50; value = 6.97 µM
Compound = COc1ccc2c(c1)CN(C(=O)CCN1CCC(Cc3ccccc3)CC1)CC[S@@+]2[O-]; tested on = Potassium voltage-gated channel subfamily A member 5 (KCNA5, Homo sapiens, UniProt P22460); test = IKur current, inhibitor, whole-cell patch clamp; system = stable cell line; endpoint = IC50; value = 3.7 µM
Compound = CCCC(C)N1CCC(N(CCNC(=O)CCl)C(=O)Nc2cccc(C(F)(F)F)c2)CC1 (centres unmarked); tested on = DCN1-like protein 1 PONY domain; test = binding, inhibitor, TR-FRET; setting = 24 h, racemic mixture; endpoint = IC50; value = 23.6 ± 1.76 µM
Compound = Cc1cccc(-c2nc(C#CCCO)[nH]c2-c2ccncc2)c1; tested on = TGFBR1; test = binding, LanthaScreen kinase binding; endpoint = IC50; value = > 5 µM

A few entries again:
Compound = CCN(Cc1cnc2nc(N)nc(N)c2n1)c1ccc(C(=O)N2CCC(C(=O)OC)CC2)cc1; tested on = TYMS; test = inhibitor; endpoint = IC50; value = > 100 µM
Compound = Cn1c(SCc2ccccc2Cl)nc(=O)c2c1NC(=O)CC2c1ccc2c(c1)OCCO2 (centres unmarked); tested on = Protein lin-28 homolog A; endpoint = IC50; value = 10.5 µM
Compound = C/C(=C\CNc1ncnc2[nH]cnc12)CO; tested on = Gelsolin, peptide (GSN, Homo sapiens, UniProt P06396); endpoint = IC50; value = 14 ± 2 µM
Compound = COc1ccc(F)c(CNC(=O)c2cnn(Cc3ccc(Cn4ccccc4=O)cc3)c2)c1F; tested on = F11; endpoint = IC50; value = > 40 µM
Compound = Nc1ccnc(-c2ccccc2)c1; tested on = TMEM175 (Homo sapiens, UniProt Q9BSA9); test = potassium current, inhibitor, whole-cell patch clamp; system = HEK293T; setting = pH neutral, +80 mV pulse; endpoint = IC50; value = ~32 µM
Compound = COc1cc2c(c(OC)c1OC)-c1c(cc3c(c1OC)OCO3)CC(C)C(C)C2 (centres unmarked); tested on = CYP3A, rat; test = poziotinib metabolism to M2, inhibitor; system = rat liver microsomes, 0.3 mg/mL; setting = 30 min, with: poziotinib 5 µM; endpoint = IC50; value = 6.97 µM
Compound = COc1ccc2c(c1)CN(C(=O)CCN1CCC(Cc3ccccc3)CC1)CC[S@@+]2[O-]; tested on = Potassium voltage-gated channel subfamily A member 5 (KCNA5, Homo sapiens, UniProt P22460); test = IKur current, inhibitor, whole-cell patch clamp; system = stable cell line; endpoint = IC50; value = 3.7 µM
Compound = CCCC(C)N1CCC(N(CCNC(=O)CCl)C(=O)Nc2cccc(C(F)(F)F)c2)CC1 (centres unmarked); tested on = DCN1-like protein 1 PONY domain; test = binding, inhibitor, TR-FRET; setting = 24 h, racemic mixture; endpoint = IC50; value = 23.6 ± 1.76 µM
